Assay results pooled from the literature.
Each line is one published result; not all experiments were run side by side. ± marks the error that the study gave.

| SMILES | organism | assay | system | conditions | EC50 |
| --- | --- | --- | --- | --- | --- |
| C[C@H]1[C@H](C)CC[C@]2(CO)CC[C@]3(C)C(=CC[C@@H]4[C@@]5(C)CCCNC(C)(C)[C@@H]5CC[C@]43C)[C@H]12 | Human alphaherpesvirus 1 | cytopathic effect | HFF, E-377 | – | > 6000 nM |
| CC(C)S(=O)(=O)c1ccc(S(=O)(=O)C(C)C)c(O)c(=O)c1O | Hepatitis B virus | viral replication, inhibitor | HepDES19 | – | > 50000 nM |
| C=C(C)[C@@H]1CCC=C2CC[C@]3(C)[C@H](CC[C@@H]4[C@@]5(C)CCCNC(C)(C)[C@@H]5CC[C@]43C)[C@H]21 | Human alphaherpesvirus 1 | cytopathic effect | HFF, E-377 | – | > 6000 nM |
| C=Cc1cn([C@@H]2O[C@H](CO)C[C@H]2O)c2ncnc(N)c12 | Trypanosoma evansi | parasite growth, resazurin | AnTat 3.3 | 48 h plus 24 h resazurin | 38 ± 2 nM |
| CN[C@H](C)C(=O)N[C@H](C(=O)N1CC[C@@H]2Oc3ccc(OC)c(c3)/C=C\NC(=O)[C@H](Cc3ccccc3)NC(=O)[C@H]21)C(C)C | porcine epidemic diarrhea virus | viral cytopathic effect | Vero cells | 72 h | 6170 ± 500 nM |
| C=C1[C@@H](n2cnc3c(=O)[nH]c(N)nc32)C[C@H](O)[C@@]1(C#N)CO | Hepatitis B virus | viral replication, inhibitor, qPCR | HepG2 2.2.15 | 14 days | 3.5 nM |
| Cc1cc(C#N)cc(C)c1Oc1nc(NC2CCN(Cc3ccccc3Br)CC2)nc2ccccc12 | HIV-1 | viral replication, luciferase reporter | TZM-bl, NL4-3 wild type | – | 33.9 ± 8.43 nM |
| CC(C)Oc1ncnc2c1c(Cl)cn2[C@@H]1O[C@H](CO)[C@@H](O)[C@H]1O | Trypanosoma evansi | parasite growth, resazurin | AnTat 3.3 | 48 h plus 24 h resazurin | 200 ± 20 nM |
| CCCCS(=O)(=O)c1ccc(S(=O)(=O)CCCC)c(O)c(=O)c1O | Hepatitis B virus | viral replication, inhibitor | HepDES19 | – | > 50000 nM |
| Nc1ncnc2c1c(Br)cn2[C@H]1C[C@H](O)[C@@H](CO)O1 | Trypanosoma evansi | parasite growth, resazurin | AnTat 3.3 | 48 h plus 24 h resazurin | 1700 ± 500 nM |
| C=C(C)[C@@H]1CC[C@]2(C(=O)NC(CO)Cc3ccccc3)CC[C@]3(C)[C@H](CC[C@@H]4[C@@]5(C)CCCNC(C)(C)[C@@H]5CC[C@]43C)[C@@H]12 (stereo partly drawn) | Human alphaherpesvirus 1 | cytopathic effect | HFF, E-377 | – | > 1200 nM |
| COc1ccc(S(=O)(=O)NCc2c[nH]nc2-c2cccs2)cc1 | Plasmodium falciparum | liver stage multiplication | primary human hepatocytes, NF54 sporozoites | sporozoites preincubated with compound | 182 nM |
| CC[C@H](C)[C@H](NC(=O)[C@@H](C)NC)C(=O)N1CC[C@@H]2Oc3ccc(OC)c(c3)/C=C\NC(=O)[C@H](C(C)C)NC(=O)[C@H]21 | porcine epidemic diarrhea virus | viral cytopathic effect | Vero cells | 72 h | 13400 ± 1130 nM |
| Nc1ncnc2c1c(Br)cn2[C@@H]1O[C@H](CO)C[C@H]1O | Trypanosoma evansi | parasite growth, resazurin | AnTat 3.3 | 48 h plus 24 h resazurin | 0.9 ± 0.2 nM |
| O=c1c(O)cccc(S(=O)(=O)Cc2ccccc2)c1O | Hepatitis B virus | viral replication, inhibitor | HepDES19 | – | 2800 nM |
| Cc1cc(C#N)cc(C)c1Oc1nc(NC2CCN(Cc3ccc(C(N)=O)cc3)CC2)nc2ccccc12 | HIV-1 | viral replication, luciferase reporter | TZM-bl, NL4-3 wild type | – | 1.82 ± 0.61 nM |
| O=c1c(O)cccc(S(=O)(=O)c2ccccc2)c1O | Hepatitis B virus | viral replication, inhibitor | HepDES19 | – | 11300 nM |
| Nc1ncnc2c1c(Cl)cn2[C@@H]1O[C@H](CO)C[C@H]1O | Trypanosoma evansi | parasite growth, resazurin | AnTat 3.3 | 48 h plus 24 h resazurin | 1.8 ± 0.2 nM |
| CCCCS(=O)(=O)c1cccc(O)c(=O)c1O | Hepatitis B virus | viral replication, inhibitor | HepDES19 | – | 1900 nM |
| Cc1cc(C#N)cc(C)c1Oc1nc(NC2CCN(Cc3ccc(S(=O)(=O)NC4CC4)cc3)CC2)nc2ccccc12 | HIV-1 | viral replication, luciferase reporter | TZM-bl, NL4-3 wild type | – | 13.3 ± 3.62 nM |
| O=c1c(O)cccc(S(=O)(=O)c2cccc3ccccc23)c1O | Hepatitis B virus | viral replication, inhibitor | HepDES19 | – | 5900 nM |
| N#C[C@]1(CO)O[C@@H](n2cnc3c(N)nc(N)nc32)C[C@@H]1O | Hepatitis B virus | viral replication, inhibitor, qPCR | HepG2 2.2.15 | 14 days | 0.5 nM |
| CCCCCCSc1cccc(O)c(=O)c1O | Hepatitis B virus | viral replication, inhibitor | HepDES19 | – | 50000 nM |
| Nc1ncnc2c1c(-c1ccccn1)cn2[C@@H]1O[C@H](CO)[C@@H](O)[C@H]1O | Trypanosoma evansi | parasite growth, resazurin | AnTat 3.3 | 48 h plus 24 h resazurin | 40 ± 10 nM |

A few entries again:
| SMILES | organism | assay | system | conditions | EC50 |
| --- | --- | --- | --- | --- | --- |
| Cc1cc(C#N)cc(C)c1Oc1nc(NC2CCN(Cc3ccc(C(N)=O)cc3)CC2)nc2ccccc12 | HIV-1 | viral replication, luciferase reporter | TZM-bl, NL4-3 wild type | – | 1.82 ± 0.61 nM |
| O=c1c(O)cccc(S(=O)(=O)c2ccccc2)c1O | Hepatitis B virus | viral replication, inhibitor | HepDES19 | – | 11300 nM |
| Nc1ncnc2c1c(Cl)cn2[C@@H]1O[C@H](CO)C[C@H]1O | Trypanosoma evansi | parasite growth, resazurin | AnTat 3.3 | 48 h plus 24 h resazurin | 1.8 ± 0.2 nM |
